Measured values gathered from unrelated publications.
Lines come from different studies, so protocols differ.
Chain of UniProt P52564 (whole entry, looked up): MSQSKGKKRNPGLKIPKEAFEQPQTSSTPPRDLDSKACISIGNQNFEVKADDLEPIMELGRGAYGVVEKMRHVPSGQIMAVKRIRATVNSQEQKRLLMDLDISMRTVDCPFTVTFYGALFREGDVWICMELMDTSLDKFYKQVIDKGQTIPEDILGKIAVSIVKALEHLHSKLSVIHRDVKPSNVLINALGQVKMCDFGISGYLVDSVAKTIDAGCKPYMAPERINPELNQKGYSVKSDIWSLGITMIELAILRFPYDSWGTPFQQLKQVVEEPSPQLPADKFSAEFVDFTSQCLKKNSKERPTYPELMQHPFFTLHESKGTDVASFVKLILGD
Chain of UniProt P00519 (whole entry, unmodified, looked up): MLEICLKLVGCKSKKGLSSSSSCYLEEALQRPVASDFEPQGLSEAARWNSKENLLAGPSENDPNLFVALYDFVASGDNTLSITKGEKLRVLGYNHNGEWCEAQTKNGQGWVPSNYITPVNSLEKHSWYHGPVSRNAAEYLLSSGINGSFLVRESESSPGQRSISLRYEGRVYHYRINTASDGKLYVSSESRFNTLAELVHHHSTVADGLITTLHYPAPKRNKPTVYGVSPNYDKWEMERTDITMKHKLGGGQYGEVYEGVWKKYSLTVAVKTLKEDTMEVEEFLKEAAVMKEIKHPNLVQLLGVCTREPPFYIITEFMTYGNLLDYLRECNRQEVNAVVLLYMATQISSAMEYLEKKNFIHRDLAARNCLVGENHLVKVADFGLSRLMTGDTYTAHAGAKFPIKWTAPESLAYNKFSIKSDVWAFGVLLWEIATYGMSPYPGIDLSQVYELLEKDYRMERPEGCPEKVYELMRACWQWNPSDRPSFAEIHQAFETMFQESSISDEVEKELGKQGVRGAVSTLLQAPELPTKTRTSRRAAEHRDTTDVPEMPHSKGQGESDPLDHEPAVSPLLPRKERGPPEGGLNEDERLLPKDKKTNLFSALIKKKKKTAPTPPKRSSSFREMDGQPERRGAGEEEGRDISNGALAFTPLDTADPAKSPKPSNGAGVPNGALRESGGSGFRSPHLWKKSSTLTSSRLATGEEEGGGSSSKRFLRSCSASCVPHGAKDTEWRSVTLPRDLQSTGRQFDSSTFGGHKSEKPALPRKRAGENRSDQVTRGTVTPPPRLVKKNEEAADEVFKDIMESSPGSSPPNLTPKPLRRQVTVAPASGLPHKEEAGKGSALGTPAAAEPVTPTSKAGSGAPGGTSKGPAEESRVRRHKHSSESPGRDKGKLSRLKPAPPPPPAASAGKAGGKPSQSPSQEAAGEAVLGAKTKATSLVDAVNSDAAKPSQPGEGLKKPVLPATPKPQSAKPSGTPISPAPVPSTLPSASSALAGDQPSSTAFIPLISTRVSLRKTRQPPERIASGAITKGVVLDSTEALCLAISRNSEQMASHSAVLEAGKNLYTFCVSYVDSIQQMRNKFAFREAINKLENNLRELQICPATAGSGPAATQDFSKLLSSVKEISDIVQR
Chain of UniProt P30530 (whole entry, looked up): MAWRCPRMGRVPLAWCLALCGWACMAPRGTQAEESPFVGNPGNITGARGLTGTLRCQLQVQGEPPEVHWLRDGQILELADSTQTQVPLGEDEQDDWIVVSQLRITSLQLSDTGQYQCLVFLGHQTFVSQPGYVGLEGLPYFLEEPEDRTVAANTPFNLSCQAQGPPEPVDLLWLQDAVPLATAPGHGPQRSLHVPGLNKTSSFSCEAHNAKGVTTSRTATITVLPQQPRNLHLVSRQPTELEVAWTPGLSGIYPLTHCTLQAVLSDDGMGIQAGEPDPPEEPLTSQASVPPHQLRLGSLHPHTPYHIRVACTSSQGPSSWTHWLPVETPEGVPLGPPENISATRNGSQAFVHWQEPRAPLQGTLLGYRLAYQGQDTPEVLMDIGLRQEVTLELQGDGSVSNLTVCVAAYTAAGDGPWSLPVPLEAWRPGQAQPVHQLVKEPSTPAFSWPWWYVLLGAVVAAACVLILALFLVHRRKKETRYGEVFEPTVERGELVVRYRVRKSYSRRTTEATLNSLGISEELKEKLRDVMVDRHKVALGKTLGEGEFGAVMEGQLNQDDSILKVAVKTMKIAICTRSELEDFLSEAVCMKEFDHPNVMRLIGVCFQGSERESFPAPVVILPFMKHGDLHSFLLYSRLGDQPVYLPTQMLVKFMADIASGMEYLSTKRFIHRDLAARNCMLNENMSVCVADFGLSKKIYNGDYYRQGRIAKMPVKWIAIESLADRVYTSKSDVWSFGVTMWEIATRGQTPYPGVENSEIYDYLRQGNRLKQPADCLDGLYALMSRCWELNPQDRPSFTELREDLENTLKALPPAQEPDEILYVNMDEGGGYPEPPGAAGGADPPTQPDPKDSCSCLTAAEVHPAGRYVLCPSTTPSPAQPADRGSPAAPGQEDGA

SMILES = Cc1[nH]c(C)c(-c2ccc(OCc3ccc(OC(F)(F)F)cc3)nc2)c(=O)c1Br; target or system = HEK293; test = cell growth or viability; quantity = IC50; result = > 10 µM
SMILES = NCc1ccc(-c2nn(Cc3ccccc3)c3ccccc23)o1; target or system = RBE; test = cell growth or viability, ATP luminescence; setting = 46 µM, 72 h; quantity = inhibition; result = 70%
SMILES = CCCN(O)N=Nc1ccc(S(=O)(=O)Nc2nccs2)cc1; test = ABTS scavenging; setting = 120 µg/mL; quantity = inhibition; result = 49.8%
SMILES = CC(=NNC(=O)c1ccncc1)c1ccc(Nc2nnc(-c3ccc(Cl)cc3)c3ccccc23)cc1; target or system = MCF7; test = cell growth or viability, MTT; setting = 0.312 µM, 24 h; quantity = viability; result = 8.41%
SMILES = O=C1O[C@H]([C@@H](O)CO)C(O)=C1O; test = ABTS scavenging; setting = 30 µg/mL; quantity = inhibition; result = 27%
SMILES = O=C(Nc1ccc(Oc2nnc(-c3ccc(Cl)cc3)c3ccccc23)cc1)c1cccc([N+](=O)[O-])c1; target or system = MCF7; test = cell growth or viability, MTT; setting = 1.25 µM; quantity = cell death; result = 96.4%
SMILES = CCCCC(=O)Nc1ccc(-c2ccc3ncn(CCC)c(=O)c3c2)cn1; target or system = Tyrosine-protein kinase ABL1, non-phosphorylated (ABL1, Homo sapiens, UniProt P00519, F317L); test = binding, competition with immobilised ligand; setting = 0.5 µM; quantity = remaining binding; result = 96%
SMILES = O=C(C=Cc1ccccc1)Nc1ccc(Oc2nnc(-c3ccc(Cl)cc3)c3ccccc23)cc1; target or system = MCF7; test = cell growth or viability, MTT; setting = 10 µM, 24 h; quantity = viability; result = 8.15%
SMILES = Cc1ccc(C(CS(=O)(=O)c2ccccc2)=NNC2=NC(=O)C(=NNc3ccc([N+](=O)[O-])cc3)S2)cc1; target or system = WM 266-4; test = cell growth or viability, MTT; setting = 6.3 µM, 48 h; quantity = viability; result = 41.6%
SMILES = OC1(c2ccc(-c3nn(Cc4ccccc4)c4ccccc34)o2)CC1; target or system = RBE; test = cell growth or viability, ATP luminescence; setting = 46 µM, 72 h; quantity = inhibition; result = 42%
SMILES = COc1ccc(C=C2SC(=N)N(c3ccccc3OC)C2=O)cc1; target or system = HEK293; test = cell growth or viability; quantity = IC50; result = > 10 µM
SMILES = CC(=O)Nc1cccc(-n2c(=O)n(C3CC3)c(=O)c3c(Nc4ccc(I)cc4F)n(C)c(=O)c(C)c32)c1; target or system = MB002; test = cell growth or viability; setting = 7 days; quantity = IC50; result = > 10 µM
SMILES = CN(C)CCNC(=O)c1ccc(-c2nc3ccc4[nH]ncc4c3c3c2CCCCC3)cc1; target or system = Kasumi 1; test = cell growth or viability; setting = 72 h; quantity = GI50; result = 0.258 µM
SMILES = CCOc1ccc2c(C)c(CC)c(=O)oc2c1C; target or system = PC-3; test = cell growth or viability, MTT; setting = 62.5 µg/mL; quantity = viability; result = 99.9%
SMILES = CCC(=CCc1c(O)cc2c(c1O)C(=O)CC(c1ccc(O)cc1)O2)CC (stereo in doubt); target or system = HeLa; test = cell growth or viability, MTT; setting = 3.125 µM, 48 h; quantity = inhibition; result = 7.2%
SMILES = COc1cc(-c2cncc3c2CN(C)Cc2cc(N4CCNCC4)ccc2-3)cc(OC)c1OC; target or system = MAP2K6 (Homo sapiens, UniProt P52564); test = enzyme activity, inhibitor; setting = 1 µM; quantity = remaining activity; result = 101%
SMILES = C=C(COCc1ccccc1)[C@@H]1CC[C@@H](C)C[C@H]1OCc1ccccc1; target or system = HeLa; test = cell growth or viability, MTT; setting = 30 µM, 72 h; quantity = inhibition; result = 44.5%
SMILES = Cc1[nH]c(C)c(-c2ccc(Nc3ccc(C(F)(F)F)cn3)cc2)c(=O)c1Br; target or system = HEK293; test = cell growth or viability; quantity = IC50; result = > 10 µM
SMILES = O=C(Nc1ccc(Oc2nnc(-c3ccc(Cl)cc3)c3ccccc23)cc1)c1ccccc1; target or system = MCF7; test = cell growth or viability, MTT; setting = 0.312 µM, 24 h; quantity = viability; result = 4.69%
SMILES = Nc1ncnc2c1c(/C=C/C(=O)N1CCCC1)nn2CC1CCCC1; target or system = FLO-1; test = cell growth or viability, resazurin; setting = 5 days; quantity = EC50; result = > 30 µM
SMILES = CCc1c(C)c2ccc(OCC(=O)NN=Cc3ccc([N+](=O)[O-])cc3)cc2oc1=O; target or system = PC-3; test = cell growth or viability, MTT; setting = 62.5 µg/mL; quantity = viability; result = 18%
SMILES = CC(=NNC(=O)c1ccccc1Cl)c1ccc(Nc2nnc(-c3ccc(Cl)cc3)c3ccccc23)cc1; target or system = MCF7; test = cell growth or viability, MTT; setting = 0.312 µM; quantity = cell death; result = 0.0885%
SMILES = CCOC1CCN(C(=O)/C=C/c2nn(Cc3cccc(C)c3)c3nc(NC)ncc23)CC1; target or system = FLO-1; test = cell growth or viability, resazurin; setting = 5 days; quantity = EC50; result = 3.59 µM
SMILES = CCN(CC)c1nc(N)c2c(N)nc3c(c2c1C#N)C(=O)CN3Cc1ccccc1; target or system = HEK293; test = cell growth or viability; quantity = IC50; result = > 10 µM
SMILES = C[C@@H]1CC[C@@H]([C@](O)(CNCc2ccc(F)cc2)COCc2ccc(F)cc2)[C@H](OCc2ccc(F)cc2)C1; target or system = HeLa; test = cell growth or viability, MTT; setting = 10 µM, 72 h; quantity = inhibition; result = 93.7%
SMILES = CC(=O)Nc1ccc(Oc2nnc(-c3ccc(Cl)cc3)c3ccccc23)cc1; target or system = MCF7; test = cell growth or viability, MTT; setting = 5 µM; quantity = cell death; result = 96.3%
SMILES = C=CCNC(=S)NNC(=O)COc1ccc2c(C)c(CC)c(=O)oc2c1C; target or system = PC-3; test = cell growth or viability, MTT; setting = 62.5 µg/mL; quantity = viability; result = 87.6%
SMILES = C=CC(=O)N1CCC(COCC(=O)N2CCN(c3nc(-c4cnc(N)nc4C(F)F)nc(N4CCOC[C@@H]4C)n3)CC2)CC1; target or system = AXL (Homo sapiens, UniProt P30530); test = binding, competition with immobilised ligand; setting = 1 µM; quantity = remaining binding; result = 98%
SMILES = CC(=NNC(N)=S)c1ccc(Nc2nnc(-c3ccc(Cl)cc3)c3ccccc23)cc1; target or system = MCF7; test = cell growth or viability, MTT; setting = 10 µM; quantity = cell death; result = 90.3%
SMILES = CN(Cc1ccc(C(C)(C)C)cc1)Cc1cccc2ccccc12; target or system = Trichophyton rubrum; test = microbial growth, disc diffusion; test system = ATCC28188; setting = 0.256 µg/mL, 6 days; quantity = inhibition zone; result = ≥ 55 mm

For quick reference, copied from above:
SMILES = CC(=O)Nc1ccc(Oc2nnc(-c3ccc(Cl)cc3)c3ccccc23)cc1; target or system = MCF7; test = cell growth or viability, MTT; setting = 5 µM; quantity = cell death; result = 96.3%
SMILES = C=CCNC(=S)NNC(=O)COc1ccc2c(C)c(CC)c(=O)oc2c1C; target or system = PC-3; test = cell growth or viability, MTT; setting = 62.5 µg/mL; quantity = viability; result = 87.6%
